Assay results gathered from unrelated publications.
Compare with care: the assays were run in different laboratories. ± marks the error that the study gave.
Sequence of UniProt P09668 (whole entry, looked up): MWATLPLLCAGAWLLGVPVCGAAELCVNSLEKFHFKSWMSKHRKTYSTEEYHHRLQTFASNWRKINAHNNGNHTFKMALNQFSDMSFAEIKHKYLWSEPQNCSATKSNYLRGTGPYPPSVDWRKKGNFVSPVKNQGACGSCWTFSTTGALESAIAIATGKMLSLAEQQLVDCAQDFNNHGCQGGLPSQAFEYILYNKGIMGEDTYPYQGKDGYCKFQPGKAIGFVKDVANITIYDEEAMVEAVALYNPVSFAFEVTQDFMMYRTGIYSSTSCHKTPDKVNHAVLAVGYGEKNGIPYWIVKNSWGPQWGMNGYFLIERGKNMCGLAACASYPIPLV
Sequence of UniProt P55060 (whole entry, looked up): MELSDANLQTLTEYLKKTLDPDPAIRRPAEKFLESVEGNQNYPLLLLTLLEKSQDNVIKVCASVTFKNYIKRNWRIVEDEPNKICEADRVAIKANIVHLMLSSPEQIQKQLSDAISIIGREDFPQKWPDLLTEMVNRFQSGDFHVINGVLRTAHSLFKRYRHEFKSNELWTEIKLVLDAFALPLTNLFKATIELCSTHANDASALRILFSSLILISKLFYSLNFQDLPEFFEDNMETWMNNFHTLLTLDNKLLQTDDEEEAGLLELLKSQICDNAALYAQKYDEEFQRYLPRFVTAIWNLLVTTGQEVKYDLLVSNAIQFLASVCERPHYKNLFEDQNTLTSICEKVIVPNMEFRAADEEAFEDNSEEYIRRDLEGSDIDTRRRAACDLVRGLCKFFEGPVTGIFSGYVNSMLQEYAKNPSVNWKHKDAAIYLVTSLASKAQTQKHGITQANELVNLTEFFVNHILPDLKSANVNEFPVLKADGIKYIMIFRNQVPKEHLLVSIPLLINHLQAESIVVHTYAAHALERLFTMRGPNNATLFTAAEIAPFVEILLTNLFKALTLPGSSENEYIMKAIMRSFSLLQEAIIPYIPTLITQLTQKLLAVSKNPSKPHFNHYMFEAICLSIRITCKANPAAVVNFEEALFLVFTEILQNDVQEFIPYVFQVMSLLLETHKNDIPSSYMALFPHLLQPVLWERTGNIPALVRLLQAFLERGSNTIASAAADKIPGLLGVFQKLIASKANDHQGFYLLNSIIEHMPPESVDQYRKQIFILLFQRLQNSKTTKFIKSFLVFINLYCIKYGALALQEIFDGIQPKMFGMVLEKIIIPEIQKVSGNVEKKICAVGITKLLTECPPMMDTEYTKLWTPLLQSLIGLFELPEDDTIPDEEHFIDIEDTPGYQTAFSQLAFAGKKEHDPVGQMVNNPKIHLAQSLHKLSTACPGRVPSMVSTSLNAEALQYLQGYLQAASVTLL

SMILES = C[C@@H](O)[C@@H](CO)NC(=O)[C@@H](CCCNC(=N)N)NC(=O)[C@@H]1CCCN1C(=O)[C@@H]1CSSC[C@H](NC(=O)[C@H](Cc2ccccc2)NC(=O)CN2CCN(CC(=O)O)CCN(CC(=O)O)CCN(CC(=O)O)CC2)C(=O)N[C@@H](Cc2ccc(O)cc2)C(=O)N[C@@H](Cc2ccccc2)C(=O)N[C@@H](CCC(N)=O)C(=O)N[C@@H](CC(N)=O)C(=O)N1 [gallium-68 labelled]; test system = Wistar rat, healthy, submandibular gland; conditions = intravenous, 8 MBq, 120 min; quantity = tissue uptake; result = 0.04 %ID/g
SMILES = C[C@H]1CN(c2n[nH]c3nc(N[C@H]4CC[C@H](NS(=O)(=O)CCC(F)(F)F)CC4)ncc23)CCO1; target or system = Exportin-2 (Homo sapiens, UniProt P55060); test = competitor, Kinobeads competition; test system = human cell extract; conditions = 0.16 µM; how to read = baseline: vehicle; quantity = relative abundance; result = 1.03
SMILES = CCCCCCCCCC(=O)N[C@@H](Cc1c[nH]c2ccccc12)C(=O)N[C@H](CC(N)=O)C(=O)N[C@@H](CC(=O)O)C(=O)N[C@@H]1C(=O)NCC(=O)N[C@@H](CCCNC(=O)CCC(=O)N2Cc3ccccc3-c3c(nnn3CCC[C@H](NC(=O)CCCCC[N+]3=C(C=CC4=CC(=CC=C5N(C)c6ccccc6C5(C)C)CCC4)C(C)(C)c4ccccc43)C(=O)NCCCCNC(=O)OC(C)(C)C)-c3ccccc32)C(=O)N[C@@H](CC(=O)O)C(=O)N[C@H](C)C(=O)N[C@@H](CC(=O)O)C(=O)NCC(=O)N[C@H](CO)C(=O)N[C@@H]([C@H](C)CC(=O)O)C(=O)N[C@@H](CC(=O)c2ccccc2N)C(=O)O[C@@H]1C; test system = human plasma; conditions = 1 µM, up to 240 min, pH 7.4, 37 °C; quantity = half-life; result = > 4 h
SMILES = CC[C@H](C)[C@H](NC(=O)[C@H](Cc1ccccc1)NC(=O)[C@H](CCC(=O)O)NC(=O)[C@H](CCCNC(=N)N)NC(=O)[C@H](C)NC(=O)[C@H](C)NC(=O)[C@H](CCC(N)=O)NC(=O)[C@H](CCC(=O)O)NC(=O)[C@H](CCC(=O)O)NC(=O)[C@H](CC(C)C)NC(=O)[C@H](Cc1ccc(O)cc1)NC(=O)[C@H](CO)NC(=O)[C@H](CO)NC(=O)[C@@H](NC(=O)[C@H](CC(=O)O)NC(=O)[C@H](CO)NC(=O)[C@@H](NC(=O)[C@H](Cc1ccccc1)NC(=O)[C@@H](NC(=O)CNC(=O)[C@H](CCC(=O)O)NC(=O)[C@H](C)NC(=O)CCc1c[nH]cn1)[C@@H](C)O)[C@@H](C)O)C(C)C)C(=O)N[C@@H](C)C(=O)N[C@@H](Cc1c[nH]c2ccccc12)C(=O)N[C@@H](CC(C)C)C(=O)N[C@H](C(=O)N[C@@H](CCCNC(=N)N)C(=O)NCC(=O)N[C@@H](CCCNC(=N)N)C(=O)N[C@@H](CCCCNC(=O)COCCOCCNC(=O)COCCOCCNC(=O)CC[C@H](NC(=O)CCCCCCCCCCCCCCCCC(=O)O)C(=O)O)C(=O)NCC(=O)NCC(=O)N[C@@H](CO)C(=O)N[C@@H](CCCCNc1c(NCCCCCN(O)C(=O)CCC(=O)NCCCCCN(O)C(=O)CCC(=O)NCCCCCN(O)C(C)=O)c(=O)c1=O)C(=O)O)C(C)C [zirconium-89 labelled]; test system = rat, kidney; conditions = iv, 3 nmol/kg, 72 h, ex vivo; quantity = tissue uptake; result = 8.56 %ID/g
SMILES = CO[C@H]1C[C@@H]2CC[C@@H](C)[C@@](O)(O2)C(=O)C(=O)N2CCCC[C@H]2C(=O)O[C@H]([C@H](C)C[C@@H]2CC[C@@H](OC(=O)NCCOCCOCCOCCOCCOCCOCCOCCOCCC(=O)N3CCc4cc(Cn5nc(-c6ccc7oc(N)nc7c6)c6c(N)ncnc65)ccc4C3)[C@H](OC)C2)C[C@@H](O)[C@H](C)/C=C(\C)[C@@H](O)[C@@H](OC)C(=O)[C@H](C)C[C@H](C)/C=C/C=C/C=C/1C; test = dose-escalation trial; test system = patients with advanced solid tumours; conditions = intravenous, all doses weekly, grade ≥3; quantity = AEs leading to discontinuation; result = 10.5%
SMILES = N=C(N)NCCC[C@@H]1NC(=O)[C@H](CCCCNC(=O)c2ccc(CNC34CNCCNCC(N)(CNCCNC3)CNCCNC4)cc2)NC(=O)[C@@H](Cc2ccc(O)cc2)NC(=O)[C@H](CC(=O)O)NC(=O)CNC1=O [copper-64 labelled]; test = ex vivo biodistribution; test system = male athymic nude mouse, PC-3 tumour, spleen; conditions = 7.4 MBq, 48 h; quantity = tissue uptake; result = 1.93 ± 0.33 %ID/g
SMILES = COc1cc(Nc2ncc(F)c(Nc3ccc4c(n3)NC(=O)C(C)(C)O4)n2)cc(OC)c1OC; target or system = Pro-cathepsin H (Homo sapiens, UniProt P09668); quantity = IC50; result = > 10 µM
SMILES = C[C@]1(CO)Cc2ncn(-c3ccc(C#N)c(Cl)c3)c2C(=O)O1; test system = human, plasma; conditions = 5 mg single dose, geometric mean; quantity = AUC(0-inf); result = 1.05 µM·h
SMILES = CC(C)C[C@@H]1NC(=O)[C@H](CC(C)C)NC(=O)[C@H](Cc2c[nH]c3ccccc23)NC(=O)[C@H](CO)NC(=O)[C@H](Cc2c[nH]c3ccccc23)NC(=O)[C@@H]2CCCN2C(=O)[C@H](CC(C)C)NC(=O)[C@H](Cc2c[nH]cn2)NC(=O)[C@@H]2CCCN2C(=O)[C@H](CC(N)=O)NC(=O)[C@H](C)NC(=O)[C@H](Cc2ccc(O)cc2)NC(=O)[C@H](CS)NC(=O)[C@H](CCCCNC(=O)CN2CCN(CC(=O)O)CCN(CC(=O)O)CCN(CC(=O)O)CC2)NC1=O [lutetium-177 labelled]; test system = Balb/c mouse, female, 4T1 tumour, intestine; conditions = intravenous, 3.7 MBq, 4 h; quantity = tissue uptake; result = 2.18 ± 0.72 %ID
SMILES = COc1cccc2c1C(=O)c1c(O)c3c(c(O)c1C2=O)C[C@@](O)(C(=O)CO)C[C@@H]3O[C@H]1C[C@H](NC(=O)[C@@H]2CCCN2C(=O)CNC(=O)[C@H](CC(C)C)NC(=O)[C@H](C)NC(=O)CP(=O)(O)O)[C@H](O)[C@H](C)O1; test system = healthy mice, plasma; conditions = intravenous, 23.6 mg/kg; quantity = AUC; result = 28.4 µM·h
SMILES = C=C1CC[C@H](OCCCNC(=O)CCOCCOCCOCCOCCOCCOCCOCCOCCOCCOCCOCCOCCOCCOCCOCCOCCOCCOCCOCCOCCOCCOCCOCCOCCOCCOCCOCCOCCOCCOCCOCCOCCOCCOCCOCCOCCNC(=O)CCN2C(=O)CC(SC[C@H](NC(=O)[C@H](CCCNC(=N)N)NC(=O)[C@@H]3CCCN3C(=O)[C@H](CCC(N)=O)NC(=O)[C@H](CC(C)C)NC(=O)[C@H](CCCCN)NC(=O)[C@H](C)NC(=O)[C@@H]3CCCN3C(=O)[C@@H]3CCCN3C(=O)[C@H](CCCCN)NC(=O)[C@H](CCCCN)NC(=O)[C@H](CO)NC(=O)[C@H](CCC(=O)O)NC(=O)[C@H](CCCCN)NC(=O)[C@H](CCCNC(=N)N)NC(=O)[C@H](CCC(N)=O)NC(=O)[C@H](CCC(N)=O)NC(=O)[C@@H](NC(=O)[C@H](CCCNC(=N)N)NC(=O)[C@H](CCC(N)=O)NC(=O)[C@H](Cc3c[nH]cn3)NC(=O)[C@H](CCC(=O)O)NC(=O)[C@@H]3CCCN3C(=O)[C@H](CO)NC(=O)[C@H](CC(C)C)NC(=O)[C@H](Cc3ccccc3)NC(=O)[C@H](CNC(=O)CCCCCCC)NC(=O)[C@H](CO)NC(=O)CN)C(C)C)C(=O)O)C2=O)C/C1=C/C=C1\CCC[C@]2(C)[C@@H]([C@H](C)CCCC(C)(C)O)CC[C@@H]12 (stereo partly shown); test = allometric scaling; test system = mouse; quantity = half-life; result = ~6.5 h
SMILES = O=C(O)C[C@H](NC(=O)[C@H](CC(=O)O)NC(=O)[C@H](CC(=O)O)NC(=O)[C@H](CC(=O)O)NC(=O)[C@H](CC(=O)O)NC(=O)[C@H](CC(=O)O)NC(=O)[C@H](CC(=O)O)NC(=O)[C@H](CC(=O)O)NC(=O)[C@H](CC(=O)O)NC(=O)[C@H](CC(=O)O)NC(=O)[C@H](CC(=O)O)NC(=O)[C@H](CCCCNC(=O)c1ccc(C(=O)NCCOCCOB2BBBBBB3BBBB3B2)cc1)NC(=O)CN1CCN(CC(=O)O)CCN(CC(=O)O)CCN(CC(=O)O)CC1)C(=O)O [gallium-67 labelled]; test system = ddY male mice, heart; conditions = intravenous, 37 kBq, 3 h; quantity = tissue uptake; result = 0.05 %ID/g
SMILES = CC[C@H](C)[C@@H]([C@@H](CC(=O)N1CCC[C@H]1[C@H](OC)[C@@H](C)C(=O)N[C@H](C)[C@@H](O)c1ccccc1)OC)N(C)C(=O)[C@@H](NC(=O)[C@H](C(C)C)N(C)C(=O)OCc1ccc(NC(=O)[C@H](C)NC(=O)[C@@H](NC(=O)CCCCCN2C(=O)CC(SC[C@H](NC(=O)[C@H](CC(=O)O)NC(=O)[C@H](CCCNC(=N)N)NC(=O)[C@H](CC(=O)O)NC(=O)CCCCn3cc(CCCC(=O)Nc4nnc(S(N)(=O)=O)s4)nn3)C(=O)O)C2=O)C(C)C)cc1)C(C)C (stereo partly shown); test = LC-MS, item: intact conjugate; test system = mouse serum; conditions = 100 µg/mL, 37 °C; quantity = half-life; result = 23 h

Some of these lines once more:
SMILES = O=C(O)C[C@H](NC(=O)[C@H](CC(=O)O)NC(=O)[C@H](CC(=O)O)NC(=O)[C@H](CC(=O)O)NC(=O)[C@H](CC(=O)O)NC(=O)[C@H](CC(=O)O)NC(=O)[C@H](CC(=O)O)NC(=O)[C@H](CC(=O)O)NC(=O)[C@H](CC(=O)O)NC(=O)[C@H](CC(=O)O)NC(=O)[C@H](CC(=O)O)NC(=O)[C@H](CCCCNC(=O)c1ccc(C(=O)NCCOCCOB2BBBBBB3BBBB3B2)cc1)NC(=O)CN1CCN(CC(=O)O)CCN(CC(=O)O)CCN(CC(=O)O)CC1)C(=O)O [gallium-67 labelled]; test system = ddY male mice, heart; conditions = intravenous, 37 kBq, 3 h; quantity = tissue uptake; result = 0.05 %ID/g
SMILES = COc1cccc2c1C(=O)c1c(O)c3c(c(O)c1C2=O)C[C@@](O)(C(=O)CO)C[C@@H]3O[C@H]1C[C@H](NC(=O)[C@@H]2CCCN2C(=O)CNC(=O)[C@H](CC(C)C)NC(=O)[C@H](C)NC(=O)CP(=O)(O)O)[C@H](O)[C@H](C)O1; test system = healthy mice, plasma; conditions = intravenous, 23.6 mg/kg; quantity = AUC; result = 28.4 µM·h
